Assay results collected from several papers.
Compare with care: the assays were run in different laboratories. “And” joins repeats or separate records; there may be more than shown. Numbers after ± are the reported error.
TOP2A: DNA topoisomerase 2-alpha (TOP2A, Homo sapiens, UniProt P11388)

Structure (SMILES)	tested on	assay	test system	setting	scale	quantity	result
CCS(=O)(=O)N1CC(CC#N)(n2cc(-c3ncnc4[nH]ccc34)cn2)C1	ORM1 (Homo sapiens, UniProt P02763)	van't Hoff		concentration not given, 293-308 K		binding entropy change	23.9 J/mol/K
O=C(Nc1cc(F)c(F)c(F)c1)c1ccc(F)c(S(=O)(=O)NCc2cccc(B(O)O)c2)c1	Capsid protein, residues 1-149 (C, Hepatitis B virus genotype D subtype ayw, UniProt P03146)	capsid assembly, size exclusion chromatography		10 µM, overnight, added: 5 µM Cp149, 150 mM NaCl		capsid to dimer ratio	0.36
C[C@@H]1CCN(C(=O)CCl)[C@@H](C(N)=O)C1	human NEDD9 full length	LC-MS peptide mapping, measured: Cys18		50 µM, 1 h		cysteine occupancy	8.5%
NCC[C@H](O)C(=O)N[C@@H]1C[C@H](N)[C@@H](O[C@H]2O[C@H](CN)[C@@H](O)[C@H](O)[C@H]2O)[C@H](O)[C@H]1O[C@H]1O[C@H](CO)[C@@H](O)[C@H](N)[C@H]1O	Albumin (ALB, Bos taurus, UniProt P02769)	tryptophan fluorescence quenching		10 to 60 µM, 283 K		Stern-Volmer quenching constant	3.96 10³ M⁻¹
CC(C)(C(=O)N1CCOc2c(C#N)cncc2C1)C(F)F		measured: gingival bleeding	human, both sexes	oral, 20 mg twice daily, 14 days, multiple ascending dose		subjects with TEAE	0%
CCCCC[S+]([O-])c1n[nH]c(N)n1 (centres unmarked)	Transcription intermediary factor 1-beta, PHD-bromodomain (TRIM28, Homo sapiens, UniProt Q13263)	binding, affinity selection mass spectrometry			reference: other proteins in batch	log fold enrichment	-0.0585
O=C(NCc1cc[nH]n1)c1ccc(C2CCCCC2)cc1		hepatocyte stability	cryopreserved human hepatocytes	1 µM		hepatic clearance	1.08 L/h/kg
CC[C@H](C)[C@@H]1NC(=O)[C@H]([C@@H](C)CC)NC(=O)[C@@H](Cc2ccc(O)cc2)NC(=O)CSC[C@@H](C(N)=O)NC(=O)[C@H](CCCNC(=N)N)NC(=O)[C@H](CCCCN)NC(=O)[C@H](CC(C)C)NC(=O)[C@H](CO)NC(=O)[C@H](CO)NC(=O)[C@H](CC(C)C)NC(=O)[C@H](Cc2ccccc2)NC(=O)[C@H](C(C)C)NC(=O)CNC(=O)[C@H](CC(C)C)NC(=O)[C@@H]2CCCN2C(=O)[C@H]([C@@H](C)O)NC(=O)[C@H](CC(=O)O)NC1=O	Vacuolar protein sorting-associated protein 29 (VPS29, Homo sapiens, UniProt Q9UBQ0)	binding, ITC		25 °C, protein alone		ΔH	-59.4 ± 1.26 kJ/mol
COc1cccc(-n2nc3c4cc(Cl)ccc4[nH]cc-3c2=O)c1	Gamma-aminobutyric acid receptor subunit alpha-6/beta-3, with delta subunit (Gabra6/Gabrb3, Rattus norvegicus, UniProt P30191+P63079)	ion current, modulator, two-electrode voltage clamp		100 nM, α6β3δ receptor, added: GABA EC3-10		efficacy	102 ± 3.8%
O=c1nc(SCc2cc(F)cc(C(F)(F)F)c2)nc(SCc2csc3ccc(Cl)cc23)[nH]1	TOP2A	decatenation		1.95 µM, replicate 1		decatenated DNA	39.7%
C=CCNC1=C2C[C@@H](C)C[C@H](OC)[C@H](O)[C@@H](C)/C=C(\C)[C@H](OC(N)=O)[C@@H](OC)/C=C\C=C(/C)C(=O)NC(=CC1=O)C2=O	NanoBiT HiBiT/LgBiT luciferase	inhibitor, HiBiT luminescence counterscreen	conditioned medium only	1.66 µM, 24 h	reference: vehicle	luminescence signal reduction	-0.3%
Cc1ncsc1-c1ccc(CNC(=O)[C@@H]2C[C@@H](O)CN2C(=O)[C@@H](NC(=O)C2(F)CC2)C(C)(C)C)c(OCCOCCOCCN2CCN(c3cc(-c4ccccc4O)nnc3N)CC2)c1	SMARCA4 (Homo sapiens, UniProt P51532)	ternary complex binding, AlphaLISA competition	HEK293 cell lysate	added: full-length VCB	reference: binary IC50 over ternary IC50	cooperativity factor alpha	3.8
CC(=O)N1CC(C(=O)Nc2ccc(C3CCCCC3)cc2)C1		hepatocyte stability	cryopreserved rat hepatocytes	1 µM		hepatic clearance	1.92 L/h/kg
O=C(COP(=O)(O)O)[C@@H](O)[C@H](O)[C@H](O)COP(=O)(O)O	Phosphoglycerate mutase 1 (Homo sapiens, UniProt P18669)			0.625 mM, unit not given	reference: activity at 10 mM set to 100	enzyme activity	71.9 and 80.3 and 64.6
O=C(O)C1CCCNC1 (centres unmarked)	SLC6A6 (Homo sapiens, UniProt P31641, G62A)	binding, microscale thermophoresis		488 nM, room temperature, added: 50 nM labelled protein	higher = more binding	normalised MST signal	-0.0501
O=c1nc(SCc2cc(F)cc(C(F)(F)F)c2)nc(SCc2ccc3nc(Cl)ccc3c2)[nH]1	TOP2A	ATPase activity		31.25 µM, added: ATP 0.5 mM		ATP hydrolysis rate	1.42 µM/min and 2.03 µM/min
COCC(=O)NC1C(O)CC(OC2C(O)C(CO)OC(Oc3ccc([N+](=O)[O-])cc3)C2O)(C(=O)O)OC1C(O)C(O)CO (centres unmarked)	Sialidase-2 (Homo sapiens, UniProt Q9Y3R4)	substrate		0.3 mM, 30 min, pH 5.0, 37 °C		sialic acid release	6%
Cc1cc(-c2ccnc3[nH]cc(F)c23)cc(F)c1[C@@]1(O)[C@H](C)CN(C(=O)CN)C[C@@H]1C	AKT1 (Homo sapiens, UniProt P31749)	ATP/ADP probe binding, KiNativ	HEK293T lysate	1 µM, ATP loop peptide		probe labelling inhibition	-3.9%
[O-][S+]1CCCCS1 (centres unmarked)	SOD1 (Homo sapiens, UniProt P00441, G94A)	LC-MS	brain homogenate	5 µM, 1 h, 37 °C		SOD1 monomer fraction	98.6%
O=S(O)(O)=S	uncharacterized protein (Pelagibacter ubique, UniProt Q4FMK2)	differential scanning fluorimetry	Candidatus Pelagibacter ubique	concentration not given	higher = stronger binding	ΔTm	5.04 °C
Nc1ncnc2c1ncn2[C@@H]1O[C@H](COP(=O)(O)OP(=O)(O)OP(=O)(O)O)[C@@H](O)[C@H]1O	P2X purinoceptor 7 (P2rx7, Rattus norvegicus, UniProt Q64663, Q143A/R125A)	ion current, agonist, two-electrode voltage clamp	Xenopus laevis oocytes	500 µM	reference: highest concentration response	normalized current	0.939 and 0.967 and 1
Nc1nc2c(ncn2[C@@H]2O[C@H](COP(=O)(O)O)[C@@H](O)[C@H]2O)c(=O)[nH]1	GUK1 (Homo sapiens, UniProt Q16774)	enzyme activity, NADH-coupled		1000 µM, added: KCl 10 mM		reaction velocity	0.125 µM/s and 0.115 µM/s and 0.0967 µM/s
CC[C@H](C)[C@H](NC(=O)[C@H](Cc1ccccc1)NC(=O)[C@H](CCC(=O)O)NC(=O)[C@H](CCCNC(=N)N)NC(=O)[C@H](C)NC(=O)[C@H](C)NC(=O)[C@H](CCC(N)=O)NC(=O)[C@H](CCC(=O)O)NC(=O)[C@H](CCC(=O)O)NC(=O)[C@H](CC(C)C)NC(=O)[C@H](Cc1ccc(O)cc1)NC(=O)[C@H](CO)NC(=O)[C@H](CO)NC(=O)[C@@H](NC(=O)[C@H](CC(=O)O)NC(=O)[C@H](CO)NC(=O)[C@@H](NC(=O)[C@H](Cc1ccccc1)NC(=O)[C@@H](NC(=O)CNC(=O)[C@H](CCC(=O)O)NC(=O)[C@H](C)NC(=O)CCc1cnc[nH]1)[C@@H](C)O)[C@@H](C)O)C(C)C)C(=O)N[C@@H](C)C(=O)N[C@@H](Cc1c[nH]c2ccccc12)C(=O)N[C@@H](CC(C)C)C(=O)N[C@H](C(=O)N[C@@H](CCCNC(=N)N)C(=O)NCC(=O)N[C@@H](CCCNC(=N)N)C(=O)N[C@@H](CCCCNC(=O)COCCOCCNC(=O)COCCOCCNC(=O)CC[C@H](NC(=O)CCCCCCCCCCCCCCCCC(=O)O)C(=O)O)C(=O)NCC(=O)NCC(=O)N[C@@H](CO)C(=O)N[C@@H](CCCCNc1c(NCCCCCN(O)C(=O)CCC(=O)NCCCCCN(O)C(=O)CCC(=O)NCCCCCN(O)C(C)=O)c(=O)c1=O)C(=O)NCC(=O)NCC(=O)N[C@@H](CO)C(=O)N[C@@H](CCCCNc1c(NCCCCCN(O)C(=O)CCC(=O)NCCCCCN(O)C(=O)CCC(=O)NCCCCCN(O)C(C)=O)c(=O)c1=O)C(=O)NCC(=O)NCC(=O)N[C@@H](CO)C(=O)N[C@@H](CCCCNc1c(NCCCCCN(O)C(=O)CCC(=O)NCCCCCN(O)C(=O)CCC(=O)NCCCCCN(O)C(C)=O)c(=O)c1=O)C(=O)NCC(=O)NCC(=O)N[C@@H](CO)C(=O)N[C@@H](CCCCNc1c(NCCCCCN(O)C(=O)CCC(=O)NCCCCCN(O)C(=O)CCC(=O)NCCCCCN(O)C(C)=O)c(=O)c1=O)C(=O)O)C(C)C	GLP1R (Homo sapiens, UniProt P43220)	agonist, CRE luciferase reporter	BHK cells	Zr-loaded DFO conjugate, added: 1% HSA	reference: parent peptide	fold potency loss	3.6

Repeated from above:
Structure (SMILES)	tested on	assay	test system	setting	scale	quantity	result
CC(=O)N1CC(C(=O)Nc2ccc(C3CCCCC3)cc2)C1		hepatocyte stability	cryopreserved rat hepatocytes	1 µM		hepatic clearance	1.92 L/h/kg
O=C(COP(=O)(O)O)[C@@H](O)[C@H](O)[C@H](O)COP(=O)(O)O	Phosphoglycerate mutase 1 (Homo sapiens, UniProt P18669)			0.625 mM, unit not given	reference: activity at 10 mM set to 100	enzyme activity	71.9 and 80.3 and 64.6
